Results from different studies.
Numbered parts are unrelated; each lists some results of a single study.

Series 1 — method: protein-binding microarray; molecule type: double-stranded DNA, one strand shown; medium: in vitro; tested at: 0.8 µM; notes: whole 60-bp probe, no competitor; direction: higher = stronger binding; endpoint: fluorescence intensity
Target: Centromere-binding protein 1, full length, N-terminal tag (CBF1, Saccharomyces cerevisiae, UniProt P17106, residues 1-351)
Chain of UniProt P17106 (whole entry, looked up): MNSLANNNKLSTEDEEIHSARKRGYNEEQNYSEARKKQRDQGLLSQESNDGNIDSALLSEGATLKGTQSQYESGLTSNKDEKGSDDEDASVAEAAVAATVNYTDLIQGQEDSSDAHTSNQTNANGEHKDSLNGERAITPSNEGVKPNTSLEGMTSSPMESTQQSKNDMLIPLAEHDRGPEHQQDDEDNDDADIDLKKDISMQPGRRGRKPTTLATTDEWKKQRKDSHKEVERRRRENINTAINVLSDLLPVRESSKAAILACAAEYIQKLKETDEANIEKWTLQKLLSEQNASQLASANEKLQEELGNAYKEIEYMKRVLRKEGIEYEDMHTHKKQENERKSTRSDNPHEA
CTACCATCATTTTGATCCGTGACATAGTAGGAATTCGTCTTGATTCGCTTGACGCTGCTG: 737 a.u.
CTACTTTTGCAGCGATTGGTGATGAAATGTTTCTTCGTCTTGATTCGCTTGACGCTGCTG: 560 a.u.
GAATATAATTGACAGCACGAGGAGAAACAAAATTAGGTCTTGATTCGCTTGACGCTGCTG: 817 a.u.
TGTACGAAGCTATAGCACGTTTTTATAGTAGTTAGGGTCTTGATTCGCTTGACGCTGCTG: 698 a.u.
CCTAACTACTATAATCACGCTGCATAGCTTCGTACAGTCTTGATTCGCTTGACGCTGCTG: 689 a.u.
GAAGCCGTACAGAACTACATGATGTATTGCATTTAGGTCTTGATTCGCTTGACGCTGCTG: 507 a.u.
TGTACGAAGCTATTTAACATGACTATAGTAGTTAGGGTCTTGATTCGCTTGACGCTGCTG: 523 a.u.
TGTACGAAGCTATTTCTCATGACTATAGTAGTTAGGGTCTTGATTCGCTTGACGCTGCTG: 538 a.u.
GAACGCAATTTTGGCTGCATCAGAATACATCGATAGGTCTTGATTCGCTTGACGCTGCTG: 548 a.u.

Series 2 — method: universal PBM; molecule type: double-stranded DNA, one strand shown; medium: in vitro; tested at: 600 nM; direction: higher = stronger binding; endpoint: E-score
Target: Sal-like protein 4, full length isoform A (SALL4, Homo sapiens, UniProt Q9UJQ4, residues 1-1053)
Chain of UniProt Q9UJQ4 (whole entry, looked up): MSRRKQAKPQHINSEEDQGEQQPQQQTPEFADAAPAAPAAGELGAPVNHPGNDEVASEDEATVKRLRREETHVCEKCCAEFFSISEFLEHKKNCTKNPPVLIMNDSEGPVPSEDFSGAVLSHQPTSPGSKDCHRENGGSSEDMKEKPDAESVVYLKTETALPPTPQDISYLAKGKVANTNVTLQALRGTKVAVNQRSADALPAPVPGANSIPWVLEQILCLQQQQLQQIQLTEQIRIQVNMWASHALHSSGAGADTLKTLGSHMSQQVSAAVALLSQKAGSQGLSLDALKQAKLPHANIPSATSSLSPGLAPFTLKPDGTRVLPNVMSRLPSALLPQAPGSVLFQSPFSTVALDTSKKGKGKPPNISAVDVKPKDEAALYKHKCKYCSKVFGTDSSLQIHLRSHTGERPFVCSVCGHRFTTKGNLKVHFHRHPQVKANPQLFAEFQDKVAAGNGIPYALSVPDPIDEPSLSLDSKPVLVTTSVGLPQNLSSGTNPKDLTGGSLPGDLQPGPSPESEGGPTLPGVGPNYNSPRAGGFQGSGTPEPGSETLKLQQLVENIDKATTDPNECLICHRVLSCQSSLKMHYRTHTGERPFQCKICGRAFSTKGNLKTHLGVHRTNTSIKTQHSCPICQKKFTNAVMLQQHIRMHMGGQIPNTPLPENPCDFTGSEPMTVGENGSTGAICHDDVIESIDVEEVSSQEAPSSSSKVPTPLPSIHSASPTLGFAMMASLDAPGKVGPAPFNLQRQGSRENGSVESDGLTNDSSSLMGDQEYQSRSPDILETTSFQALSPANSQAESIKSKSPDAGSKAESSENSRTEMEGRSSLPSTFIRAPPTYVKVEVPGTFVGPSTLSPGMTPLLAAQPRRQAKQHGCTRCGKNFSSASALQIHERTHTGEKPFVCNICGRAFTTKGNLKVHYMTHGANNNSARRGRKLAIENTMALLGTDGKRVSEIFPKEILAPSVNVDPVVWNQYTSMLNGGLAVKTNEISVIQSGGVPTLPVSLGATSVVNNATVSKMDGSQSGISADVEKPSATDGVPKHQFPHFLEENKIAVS
Notes: 8-mer, flanks averaged, mean of replicates
ATTGGCAG: -0.112
GTAACATA: 0.223
CGCTCTCA: -0.283
AGCACGGC: -0.172
ATGCAAAA: 0.305
CACTGTTC: -0.0414
ACCTCAAT: 0.0375
CCGACATC: -0.109
CCCTTAAG: -0.0317
GACCCTGC: -0.148
TAGACCCA: -0.0994
CCTTATCG: 0.161
GATGCTCA: -0.124

Series 3 — method: RNA Bind-n-Seq; molecule type: RNA; medium: in vitro; tested at: 365 nM; relative to: no-protein control; direction: higher = stronger binding; endpoint: RBNS enrichment (R)
Target: RNA binding protein fox-1 homolog 2, RRM domain, GST-SBP tag (RBFOX2, Homo sapiens, UniProt O43251-10, residues 100-194)
Notes: natural RNA segment, single round, ends assumed
Construct (chain): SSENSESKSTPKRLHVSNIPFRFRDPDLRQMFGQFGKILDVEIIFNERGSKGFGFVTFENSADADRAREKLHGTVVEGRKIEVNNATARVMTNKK
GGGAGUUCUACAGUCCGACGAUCUGGAAAAUUCAAGGAUUGUUUAAAGGUCUGUGAUCAUCACAUACAAGAUGUAACUCUGGUUAUUUCAGUCAUAUCUGUGACUCUAUCAUGUACAGUUUCCUGAAUUGUCAUGGAAUUCUCGGGUGCCAA: 0.311
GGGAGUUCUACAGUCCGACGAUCUGUCACGGCUAAUGUGAAAUCUCUUCCCGUGGCGCCCAUCCUCUGACUCUGCAGUGCCAGCUUGGACAGAUUGAGGUCUCUGUGGCUUUGGUGACCCUGCUUAAGCAUUCUGGAAUUCUCGGGUGCCAA: 0.45
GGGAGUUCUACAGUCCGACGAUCCCACUUUAACACUAAUGCACUGACAGAUUCUAAAUAUUUUGUGAGAAAUGUUGAAAUGUUUAACCUGAUAGGCUUCUCUAUAAAAGAGUGUUUUGUUUUUUUCCCUGCACUGGAAUUCUCGGGUGCCAA: 1.72
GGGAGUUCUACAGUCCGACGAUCGAUUUAUAGUCCAGAGAAUACUUCUUAAAGUUAGCAAAUGAAAUUAUUACAGAUUAUACGAGUGUACUGCUUUAAAGAUAUUCCAUCAUUUUGCUGGUAAUUUCAGUAACUGGAAUUCUCGGGUGCCAA: 0.467
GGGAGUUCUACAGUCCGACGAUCAUACCAGUAAAACAGAUUCUGACGUGUUUGUAGUUAUCAAAUGAAUGGCUCGAAACACUUCUCAAAAGGAUAUACGUAUUGACCCCAACAAUAAAUGUUUGUGGCUAGUGUGGAAUUCUCGGGUGCCAA: 0.397
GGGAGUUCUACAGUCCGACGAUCGAGCCUGUUCCUCACUGGAAAUUGGCCUCUGUGUGUGUGUGUGUGUGUGUGUGUGUGUGUAUGUUCAUGUACACUUGGCUGUCAGGCUUUCUGUGCAUGUACUAAAAAAGUGGAAUUCUCGGGUGCCAA: 4.07
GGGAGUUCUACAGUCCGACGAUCUGAGGAGGUUUUUCCUUAUUGUAUAAAUGAAUAUUUGUAUGAUUAAAUUAACACACACACCAAAAAAGCUGUUUUCAUGUGUGUUGGUGAGUUUUAUUGCACCCUCAAGCUGGAAUUCUCGGGUGCCAA: 0.691
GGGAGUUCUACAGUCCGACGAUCAAACGAGGACACGACGGCCAAGGUGGCAGUUUGUCCCACGGGAGGACAGUCGUUUCUUUUCCAGCCUCCUGGCCUUCGGACUCUGAAUCUGGGCAGGAAGAGUCCUCAGUUGGAAUUCUCGGGUGCCAA: 0.297
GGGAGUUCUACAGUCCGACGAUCUUUACUGUUGCUUAUCUCCAAGAUAUUAUGGAAUUAAGAAUUUUUCCAGAUGAGUGUUACAUAGAUUCUUUGAAUUUAGUAUAAAAGUACUGAGAAUUAAGUUUGUACUUUGGAAUUCUCGGGUGCCAA: 0.542
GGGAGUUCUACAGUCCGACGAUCCAAAUAGCUGAGCCAAAAGGCUGAUCAGAAUUCACUUUUUGGAAUGUGGCAGUUAAACACUACCUUGAUCAUUCUCUCCUCUUUCCUCGAGGAACUCCUGGAGGGUUUGAUGGAAUUCUCGGGUGCCAA: 0.25
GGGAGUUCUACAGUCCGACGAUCAGUGGAGACUCCCAUCUUUGGGGAAGCAUAUAUGCUCAAGCGCCUCUACAAAGACAUUCCCUGGCAGUAAGAAAUGCUGAAAUGCUUUUUGUUGGUUUUGAAACACUCCCUGGAAUUCUCGGGUGCCAA: 0.453
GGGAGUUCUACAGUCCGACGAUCACAAGACACCAAGUCCCUAGGCUGCACACACAUGUCAGGGGCUGCCCUGACAUGGCCUGGAGACAUUUUCCCCAUGGUGUUGGGGAUUAACAUUAGGCUCCUUGCUACUUUGGAAUUCUCGGGUGCCAA: 1.54

Other studies, line by line
PhoQ, residues 284 288 289 292 302 303 SSYNSA — fold induction (PhoP, residues 12 14 15 18 19 NHTVL (Escherichia coli, UniProt P23836); Sort-seq, refers to: YFP reporter; E. coli; PhoQ-PhoP variant library, together with: 10 µM Mg2+; relative to: high Mg2+ state, higher = stronger signaling): 1.05

Excerpt of the above (series 2):
GACCCTGC: -0.148
GTAACATA: 0.223
ATGCAAAA: 0.305
CCCTTAAG: -0.0317
